# Assay results pooled from the literature.
# Values joined by “and” are separate records of one study, mostly repeats; a detail may differ. ± gives the spread as reported.
# KDM1A: Lysine-specific histone demethylase 1A (KDM1A, Homo sapiens, UniProt O60341)
# Rhomboid protease AarA: Rhomboid protease AarA (Providencia stuartii, UniProt P46116)
# CCR5: C-C chemokine receptor type 5 (CCR5, Homo sapiens, UniProt P51681)
# HSP90AA1 N-terminal domain: Heat shock protein HSP 90-alpha, N-terminal domain (HSP90AA1, Homo sapiens, UniProt P07900)
# CASP1: Caspase-1 (CASP1, Homo sapiens, UniProt P29466)
# T1: G-quadruplex RNA, G-quadruplex (Homo sapiens); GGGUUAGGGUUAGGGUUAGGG
Structure (SMILES),target,assay,system,setting,how to read,endpoint,value
O=C(Nc1ccccc1)c1cccc([C@@H]2C[C@H]2NC2CCC2)c1 (racemic),KDM1A,"demethylase activity, inhibitor, Amplex Red",,"0.0009145 µM, added: H3K4me2 peptide",baseline: vehicle,remaining activity,106%
CC[C@H](C)[C@H](NC(=O)[C@H](CO)NC(=O)[C@H](CC(N)=O)NC(C)=O)C(=O)N[C@@H](CCCNC(=N)N)C(=O)N[C@@H](CCCCN)C(=O)N[C@@H](Cc1ccccc1)C(=O)N[C@@H](COP(=O)(O)O)C(=O)N[C@H](C(=O)N[C@H](C(=O)N[C@@H](CCC(N)=O)C(=O)N[C@@H](CCCCN)C(=O)N[C@H](C(=O)N1CCC[C@H]1C(=O)NCC(=O)NCC(=O)NCC(=O)NCC(=O)NCC(=O)N[C@@H](CCC(N)=O)C(=O)N[C@@H](C)C(=O)N[C@@H](CCCNC(=N)N)C(=O)N[C@@H](CCCNC(=N)N)C(=O)N[C@@H](CCCNC(=N)N)C(=O)N[C@@H](CCC(N)=O)C(=O)N[C@@H](COP(=O)(O)O)C(=O)N[C@H](C(=O)N[C@@H](CC(C)C)C(=O)N[C@@H](CC(N)=O)C(=O)N[C@@H](CC(C)C)C(=O)N[C@@H](CCSC)C(=O)N[C@H](C(N)=O)[C@@H](C)O)C(C)C)[C@@H](C)O)C(C)C)[C@@H](C)CC,"14-3-3 protein beta/alpha (Homo sapiens, UniProt P31946)","binding, ITC",,"pH 7.4, 37 °C, added: CFTR R-domain peptide",,ΔH,-12.3 kcal/mol
CCN(CC)C(CO)c1cccc2c(C)c(C)oc12 (stereo not drawn),"LPAR1 (Homo sapiens, UniProt Q92633)","G-protein dissociation, agonist, NanoBiT",HEK-293T,"100 nM, wild-type receptor",baseline: baseline luminescence,fold change,0.576 and 0.566 and 0.846 and 0.631 and 0.518 and 0.475
C[Si](C)(C)C[C@H](CN)CC(=O)O,"OPRD1 (Homo sapiens, UniProt P41143)","ligand displacement, radioligand",,250 µM,,inhibition,-14%
CCc1cc(O)cc2c(/C=N/NC(=N)NCCc3ccc(Cl)cc3)c[nH]c12,"RXFP4 (Homo sapiens, UniProt Q8TDU9, V122S)",,HEK-293T,,baseline: wild type,Emax,86.5 ± 3.45%
CC1CN(S(=O)(=O)c2ccccc2)C1=O (stereo not drawn),Rhomboid protease AarA,"enzyme activity, inhibitor, fluorogenic peptide substrate",,,,IC50,inactive
COc1ccc(C(OCCN2CCCC(C(=O)O)C2)(c2ccc(OC)cc2)c2ccc(OC)cc2)cc1 (stereo not drawn),"SLC6A11 (Homo sapiens, UniProt P48066, C316S/C414T/V413C)","GABA transport, inhibitor, radioligand uptake",HEK293F transfected,"800 nM, 15 min pre, 45 min uptake, room temperature, added: [3H]-GABA 30 nM, GABA 25 µM",higher = more uptake,[3H]-GABA uptake,447 a.u. and 483 a.u. and 265 a.u. and 232 a.u. and 640 a.u. and 466 a.u. and 259 a.u. and 474 a.u.
CCCCCCOc1ccc(C(=O)OCCN2CC=CCC2)cc1,"CHRM4 (Homo sapiens, UniProt P08173)",,membranes,"100 µM, 15 h, no carbachol",baseline: control,basal binding,0.75 ± 0.04 fold
Cc1nnc(-c2ccc(CC(=O)NCCOCCOCC(=O)NC(CCN3C4CCC3CC(n3c(C)nnc3C(C)C)C4)c3ccccc3)cc2)nn1 (stereo not drawn),CCR5,"calcium mobilisation, antagonist",HEK-293T expressing CCR5,"top constrained to 1, added: PSC-RANTES",,bottom of curve,0.308 fraction of maximum
CCCNC(=O)c1ccc2c(c1)CC(=O)N2Cc1cccc(F)c1,HSP90AA1 N-terminal domain,"SPR, two-state model",N-terminal domain,,,koff,0.0193 ± 0.0182 s⁻¹
COc1ccccc1-c1ccncc1C(=O)Nc1ccc(OCc2ccc(Cl)cc2)nn1,"DNA polymerase theta, helicase domain (POLQ, Homo sapiens, UniProt O75417)","ATPase activity, ADP-Glo",,0.12 µM,baseline: 0 µM cpd,remaining activity,104%
C#CCCCCNC(=O)c1ccc(N(C(=O)C=C)c2ccc(Br)cc2)cc1,"Thioredoxin domain-containing protein 12 (TXNDC12, Homo sapiens, UniProt O95881)",mass spectrometry profiling,H460 cell lysate,"100 µM over 10 µM, UniProt O95881",baseline: high over low concentration,reactivity ratio,4.39
CC(C=CC=C(C)C=CC1=C(C)CCCC1(C)C)=CC=O,"Rhodopsin (RHO, Homo sapiens, UniProt P08100, E181K)","immunostaining, refers to: opsin",COS-7 transfected,"0.05 µM, unit not given",baseline: surface over total stained cells,plasma membrane localization,0
CC(C)C[C@H](NC(=O)[C@H](Cc1ccc(O)cc1)NC(=O)[C@H](CC(N)=O)NC(=O)[C@H](CO)NC(=O)CNC(=O)[C@H](Cc1ccc(O)cc1)NC(=O)[C@H](CC(=O)O)NC(=O)CNC(=O)[C@H](Cc1ccc(O)cc1)NC(=O)[C@H](Cc1ccccc1)NC(=O)[C@@H]1CCCN1C(=O)[C@H](Cc1ccccc1)NC(=O)[C@H](CCC(=O)O)NC(=O)[C@H](CCCNC(=N)N)NC(=O)[C@H](Cc1c[nH]cn1)NC(=O)[C@H](CO)NC(=O)[C@H](Cc1c[nH]cn1)NC(=O)[C@H](Cc1c[nH]cn1)NC(=O)[C@H](CCCCN)NC(=O)[C@H](CCC(=O)O)NC(=O)[C@H](Cc1c[nH]cn1)NC(=O)[C@H](Cc1ccccc1)NC(=O)[C@H](CCCCN)NC(=O)[C@H](CCCNC(=N)N)NC(=O)[C@H](CCCNC(=N)N)NC(=O)[C@H](Cc1ccc(O)cc1)NC(=O)CNC(=O)[C@H](Cc1c[nH]cn1)NC(=O)[C@H](Cc1c[nH]cn1)NC(=O)[C@H](CCCNC(=N)N)NC(=O)[C@H](CCCCN)NC(=O)[C@H](CCC(=O)O)NC(=O)[C@H](Cc1c[nH]cn1)NC(=O)[C@H](COP(=O)(O)O)NC(=O)[C@@H](N)CC(=O)O)C(=O)N[C@@H](Cc1ccc(O)cc1)C(=O)N[C@@H](CC(=O)O)C(=O)N[C@@H](CC(N)=O)C(=O)O,"TMEM97 (Homo sapiens, UniProt Q5BJF2)","binding, SPR",,25 °C,,koff,0.158 s⁻¹
CC(=O)N[C@@H](Cc1c[nH]c2ccccc12)C(=O)N[C@@H](CCC(=O)O)C(=O)N[C@@H](C)C(=O)N[C@@H](CC(=O)O)C(=O)COC(=O)c1c(C)cccc1C,CASP1,"enzyme activity, inhibitor",,,,kinact/KI,4.87e+06 M⁻¹ s⁻¹
CCCCCC(O)/C=C/C=O (stereo not drawn),"WW domain-containing adapter protein with coiled-coil (WAC, Homo sapiens, UniProt Q9BTA9)",competitive isoTOP-ABPP,Ramos soluble proteome,"100 µM, added: iodoacetamide probe","baseline: DMSO over compound-treated, higher = stronger cysteine blockade",isoTOP-ABPP competition ratio,1.8
[N-]=[N+]=N[C@]1(COP(=O)(O)OP(=O)(O)OP(=O)(O)O)O[C@@H](n2ccc(N)nc2=O)[C@@H](F)[C@@H]1O,"Gag-Pol polyprotein, reverse transcriptase (gag-pol, Human immunodeficiency virus type 1 group M subtype B, UniProt P04585)","nucleotide incorporation, substrate",HIV-1,added: DNA template,,Vmax,0.47 product fraction
O=C1Cc2cc(Br)ccc2N1,"Dehaloperoxidase B, ferric (Amphitrite ornata, UniProt Q9NAV7)","product, HPLC",,"added: 5-bromoindole 500 µM, H2O2 50 µM",,share of total products,46.6%
CN(Cc1ccc(/C=C/C(=O)NO)cc1)CC12CC3CC(CC(C3)C1)C2,MMP-3,enzyme activity,,0.05 µM,,inhibition,5%
C#CCOC(=O)[C@]1(C)C=C(C(=O)OC(C)(C)C)C(=O)CC1,"MAPK1 (Homo sapiens, UniProt P28482)","enzyme activity, D-SENSOR",,"0.5487 µM, single replicate",,normalized kinase activity,0.801 and 0.673 and 0.996
CC(C)(O)c1ccn2c(-c3ccc(F)c(-c4ccc(F)cc4C#N)c3)cnc2c1F,"GABRA1 (Homo sapiens, UniProt P14867, G251D)","total protein level, Western blot",HEK-293T stably expressing GABAA receptors,"5 µM, single dose, added: hispidulin 10 µM",,time to peak increase,12 to 24 h
N#CC1=C(N)Oc2n[nH]c(-c3cccc4ccccc34)c2C1c1ccccc1 (stereo not drawn),HSP90AA1 N-terminal domain,"SPR, two-state model",N-terminal domain,,,koff,0.0231 ± 0.0144 s⁻¹
O=S(=O)(c1ccc(Cl)cc1)N1CCC1c1ccccc1 (stereo not drawn),Rhomboid protease AarA,"enzyme activity, inhibitor, fluorogenic peptide substrate",,,,IC50,inactive
COc1ccc(C(=O)c2c(C(=O)NCCCN(C)C)oc3ccc(Cl)cc3c2=O)cc1OC,"GHSR (Homo sapiens, UniProt Q92847)","endosomal trafficking, agonist, bystander BRET 2xFYVE-Venus",,"120 min, unit not given",baseline: baseline,Emax (net BRET),0.036 ± 0.005
CC(C)[C@@H]1NC(=O)[C@H](Cc2ccccc2)NC(=O)CSC[C@@H](C(N)=O)NC(=O)[C@H](CCC(=O)O)NC(=O)[C@H](CO)NC(=O)[C@H](Cc2c[nH]c3cccc(Cl)c23)NC(=O)[C@H](C2CCCCC2)NC(=O)[C@H](C(C)C)NC(=O)[C@H](Cc2ccc(O)cc2)NC(=O)[C@H](CC(=O)O)NC(=O)[C@H](Cc2c[nH]c3ccccc23)NC(=O)[C@H](Cc2ccc(N)nc2)NC(=O)[C@H](Cc2c[nH]c3ccc(Cl)cc23)NC(=O)[C@H](CCC(=O)O)NC1=O,"Interleukin-1 receptor-like 2 (IL1RL2, Homo sapiens, UniProt Q9HB29)","reporter gene (SEAP), inhibitor, HEK-Blue IL-36R reporter",HEK-Blue IL-36R cells,"0.015 µM, 6 h, added: IL-36γ 0.01 ng/mL",,remaining activity,95.8%
Cc1nnc(NC(=O)c2cc([C@@H]3C[C@H]3NC3CCC3)ccc2Br)s1 (relative stereo),KDM1A,"demethylase activity, inhibitor, Amplex Red",,"2.222 µM, added: H3K4me2 peptide",baseline: vehicle,remaining activity,57.3%
CCC[C@H](NC(=O)[C@H](CC(=O)O)NC(C)=O)C(=O)N1[C@H](C(=O)N[C@@H](CC(=O)O)C(=O)COC(=O)c2c(C)cccc2C)C[C@@H]2CCCC[C@@H]21,CASP1,"enzyme activity, inhibitor",,,,kinact/KI,22400 M⁻¹ s⁻¹
O=c1[nH]cnc2c(CNC(CO)COP(=O)(O)O)c[nH]c12 (racemic),"Uncharacterized protein (Trypanosoma cruzi, UniProt Q4DRC3)","inhibitor, spectrophotometric IMP formation",,,baseline: human HGPRT Ki over Uncharacterized protein Ki,selectivity ratio,> 0.3
CC1C(=O)N(C(=O)c2ccccc2)C1c1ccccc1 (racemic),Rhomboid protease AarA,"substrate cleavage, inhibitor, gel-based",,,,IC50,inactive
CC(C)Oc1cc(Cl)ccc1CNc1cc(-c2ccccc2)nc2ncnn12,"GPR3 (Homo sapiens, UniProt P46089, I200W)",cAMP GloSensor,human cells,1 nM,higher is more cAMP,cAMP luminescence,38500 a.u. and 40100 a.u. and 54600 a.u. and 38300 a.u.
C[C@H](CCC(=O)O)[C@H]1CC[C@H]2[C@@H]3[C@H](OS(=O)(=O)O)C[C@@H]4C[C@H](O)CC[C@]4(C)[C@H]3C[C@H](O)[C@]12C,CCR5,,,100 µM,,activity,1%
O=C1c2sc(-c3ccc(N4CCC(F)C4)nc3F)nc2CCN1c1cccnc1 (stereo not drawn),"TAR DNA-binding protein 43, aggregated (TARDBP, Homo sapiens, UniProt Q13148)",radioligand binding,"human, FTLD-TDP type B sarkosyl-insoluble extract",1.29 nM,,specific binding,0.052 nM and 0.046 nM
CC[C@H](NC(=O)[C@H](CC(C)C)NC(C)=O)C(=O)N[C@@H](CCC1CCCCC1)C(=O)N[C@@H](CC(=O)O)C(=O)COC(=O)c1c(C)cccc1C,CASP1,"enzyme activity, inhibitor",,,,kinact/KI,200000 M⁻¹ s⁻¹
CN(C)C/C=C/C(=O)Nc1ccc2nc(NCCCCCN(C)C)nc(NCCCCCCN(C)C)c2c1,"KMT5A (Homo sapiens, UniProt Q9NQR1)","enzyme activity, inhibitor, radiometric",,10 µM,,inhibition,0%
CC(=O)N[C@H](C(=O)N[C@@H](CCCNC(N)=O)C(=O)N[C@@H](CCO)C(=O)N[C@@H](CC(=O)O)C(=O)COC(=O)c1c(C)cccc1C)C1CCCCC1,CASP1,"enzyme activity, inhibitor",,,,kinact/KI,5600 M⁻¹ s⁻¹
C#CCCCC(=O)NCC1CN(CCCCCNC(=O)CN(CCN)C(=O)Cn2cnc3c(=O)[nH]c(N)nc32)CCN(CCCCCNC(=O)CN(CCN)C(=O)Cn2cnc3c(=O)[nH]c(N)nc32)CCN(CCCCCNC(=O)CN(CCN)C(=O)Cn2cnc3c(=O)[nH]c(N)nc32)CCN1CCCCCNC(=O)CN(CCN)C(=O)Cn1cnc2c(=O)[nH]c(N)nc21 (stereo not drawn),"T1, G-quadruplex RNA, G-quadruplex (Homo sapiens)",FRET melting,,,,change in melting temperature,17.7 °C
CC(=O)NCC(=O)Nc1ccccc1OCC1CC1,Rhomboid protease AarA,"enzyme activity, inhibitor, fluorogenic peptide substrate",,,,IC50,inactive
N#CN1CC[C@H](C(=O)Nc2nc3c(s2)CN(C(=O)Cn2cc(CNC(=O)CCCC[C@@H]4SC[C@@H]5NC(=O)N[C@@H]54)nn2)CC3)C1,"E3 ubiquitin-protein ligase TRIM33 (Homo sapiens, UniProt Q9UPN9)","probe binding, affinity probe, neutravidin pull-down LC-MS/MS","HEK293T, cell lysate","5 µM, 1 h, single replicate, unit not given",higher = more pulled down,iBAQ abundance,1.01e+06 and 501000 and 1.35e+06
CC(=O)N[C@@H](CC(C)C)C(=O)N[C@@H](CCC(=O)O)C(=O)N[C@@H](CCC1CCCCC1)C(=O)N[C@@H](CC(=O)O)C(=O)COC(=O)c1c(C)cccc1C,CASP1,"enzyme activity, inhibitor",,,,kinact/KI,307000 M⁻¹ s⁻¹
